Results collected from several papers.
Compare with care: the assays were run in different laboratories. Numbers after ± are the reported error.

| Molecule | cell line | test | setting | EC50 [nM] |
| --- | --- | --- | --- | --- |
| CC[C@H](C)[C@H](NC(=O)[C@H](CCC(=O)O)NC(=O)[C@H](CC(=O)O)NC(=O)CNC(=O)[C@H](CC(C)C)NC(=O)[C@H](CCCNC(=N)N)NC(=O)[C@H](CCCNC(=N)N)NC(=O)[C@H](CC(C)C)NC(=O)CNC(=O)[C@H](CCC(N)=O)NC(=O)[C@@H](NC(=O)[C@H](CCSC)NC(=O)[C@H](Cc1c[nH]c2ccccc12)NC(=O)[C@@H](NC(=O)[C@H](CCC(=O)O)NC(=O)[C@@H]1CCCN1C(=O)[C@H](CCCNC(=N)N)NC(C)=O)[C@@H](C)CC)[C@@H](C)O)C(=O)N[C@@H](CC(N)=O)C(=O)N[C@@H](C)C(=O)N[C@@H](Cc1ccc(O)cc1)C(=O)N[C@@H](Cc1ccc(O)cc1)C(=O)N[C@@H](C)C(=O)N[C@@H](CCCNC(=N)N)C(N)=O | Mcl-1-dependent multiple myeloma cells | mitochondrial depolarization, BH3 profiling | – | ~3000 |
| Cc1ccc(C)c(NC(=O)c2nnn(-c3cccc(Cl)c3C)c2C)c1 | INS1 | cell viability, protective, CellTiter-Glo | 72 h, together with: tunicamycin 0.15 µg/mL | 6000 ± 1000 |
| O=c1ccn([C@@H]2O[C@H](COP(=O)(O)OP(=O)(O)OP(=O)(O)OC[C@@H]3O[C@@H](n4ccc(=O)[nH]c4=O)C(O)[C@@H]3O)[C@H](O)C2O)c(=O)[nH]1 (some centres unmarked) | MIN6 | intracellular calcium increase, agonist, FLIPR | room temperature | 3.2 ± 0.7 |
| Cc1cc(NC(=O)c2cccc(NC(=O)/C=C/CN(C)C)c2)ccc1Nc1nccc(-c2cccnc2)n1 | SH-SY5Y MKK7 inducible | c-Jun Ser73 phosphorylation, inhibitor, western blot, item: phospho-c-Jun Ser73 | 6 h, together with: doxycycline | 760 ± 120 |
| CCN(CC)c1ccc(C2Nc3ccc(-c4ccccc4)cc3NC3=C2C(=O)CC(C)(C)C3)cc1 (centres unmarked) | H4 | cytoprotection | together with: thapsigargin 7.5 µM | 9600 ± 1060 |
| CCC#CC[C@H](C)[C@H](O)/C=C/[C@H]1CC(F)(F)C(=O)N1CCCCCCC(=O)O | bone marrow cells, old female rats | alkaline phosphatase activity, activator | 9 days, single treatment at plating | 1.61 ± 0.36 |
| insulin human | HMEC | DNA synthesis, agonist, 3H-thymidine incorporation | HSA 0% | 3.7 |
| O=P(O)(O)O[C@@H]1[C@H](O)[C@H](O)[C@@H](OP(=O)(O)O)[C@H](OP(=O)(O)O)[C@H]1O | chicken DT40 wild type | CRAC current, agonist, whole-cell patch clamp | intracellular application, together with: cytosolic Ca2+ 150 nM | 670 |
| CC1(C)CC(=O)C2=C(C1)Nc1cc(Cl)ccc1NC2c1ccc(N2CCCC2)cc1 (centres unmarked) | H4 | cytoprotection | together with: thapsigargin 7.5 µM | 20600 ± 660 |
| O=C(N[C@@H]1CCCc2c1[nH]c1ccc(Cl)cc21)c1ccccn1 | Vero | cell growth, MTS | – | 12 |
| CC1(C)CC(=O)C2=C(C1)Nc1cc(C(=O)c3ccccc3)ccc1NC2c1ccc(N2CCCC2)cc1 (centres unmarked) | H4 | cytoprotection | together with: thapsigargin 7.5 µM | 19000 ± 1280 |
| Fc1ccc(CNc2ncnc3ccc(F)cc23)cc1 | human PBMC | T cell expansion, resazurin | 7 days, together with: concanavalin A 2 µg/mL | > 25000 |
| insulin icodec | HMEC | DNA synthesis, agonist, 3H-thymidine incorporation | HSA 0% | 1880 |
| CC1(C)CC(=O)C2=C(C1)Nc1cc(C(F)(F)F)ccc1NC2c1ccc(N2CCCC2)cc1 (centres unmarked) | H4 | cytoprotection | together with: thapsigargin 7.5 µM | < 20000 |
| COc1ccccc1C(=O)Nc1ccc(N2CCN(c3cccc(C)c3C)CC2)cc1C(=O)O | CHO-K1 | cell growth rescue | rescue relative to DFMO alone, together with: DFMO at IC50 plus 1 µM spermidine | ~20000 |
| CC1(C)CC(=O)C2=C(C1)Nc1cc(C(=O)c3ccccc3)ccc1NC2c1ccc(N2CCCCC2)cc1 (centres unmarked) | H4 | cytoprotection | together with: thapsigargin 7.5 µM | 14700 ± 3520 |
| C[C@]12CC[C@H]3C(=CC=C4C[C@@H](O)CC[C@@]43C)[C@@H]1CC[C@@H]2C(=O)CO | SK-MEL-188 amelanotic melanoma | cell growth, inhibitor, MTT | 48 h | 91 |

A few entries again:
| Molecule | cell line | test | setting | EC50 [nM] |
| --- | --- | --- | --- | --- |
| O=c1ccn([C@@H]2O[C@H](COP(=O)(O)OP(=O)(O)OP(=O)(O)OC[C@@H]3O[C@@H](n4ccc(=O)[nH]c4=O)C(O)[C@@H]3O)[C@H](O)C2O)c(=O)[nH]1 (some centres unmarked) | MIN6 | intracellular calcium increase, agonist, FLIPR | room temperature | 3.2 ± 0.7 |
| Cc1cc(NC(=O)c2cccc(NC(=O)/C=C/CN(C)C)c2)ccc1Nc1nccc(-c2cccnc2)n1 | SH-SY5Y MKK7 inducible | c-Jun Ser73 phosphorylation, inhibitor, western blot, item: phospho-c-Jun Ser73 | 6 h, together with: doxycycline | 760 ± 120 |
| CCN(CC)c1ccc(C2Nc3ccc(-c4ccccc4)cc3NC3=C2C(=O)CC(C)(C)C3)cc1 (centres unmarked) | H4 | cytoprotection | together with: thapsigargin 7.5 µM | 9600 ± 1060 |
